{"data": "Experimental data collected from several papers", "Tmem97": "Sigma intracellular receptor 2 (Tmem97, Rattus norvegicus, UniProt Q5U3Y7)", "Caspase-2": "Caspase-2 (Homo sapiens, UniProt P42575)", "NHERF1 PDZ1 domain": "Na(+)/H(+) exchange regulatory cofactor NHE-RF1, PDZ1 domain (NHERF1, Homo sapiens, UniProt O14745)", "Hrh3": "Histamine H3 receptor (Hrh3, Rattus norvegicus, UniProt Q9QYN8)", "Caspase-2 circularly permuted": "Caspase-2, circularly permuted (Homo sapiens, UniProt P42575)", "SIGMAR1": "Sigma non-opioid intracellular receptor 1 (SIGMAR1, Cavia porcellus, UniProt Q60492)", "blaNDM-1": "Metallo-beta-lactamase type 2 (blaNDM-1, Klebsiella pneumoniae, UniProt C7C422)", "Nos2": "Nitric oxide synthase, inducible (Nos2, Mus musculus, UniProt P29477)", "TYMS": "Thymidylate synthase (TYMS, Homo sapiens, UniProt P04818)", "FUT8": "Alpha-(1,6)-fucosyltransferase (FUT8, Homo sapiens, UniProt Q9BYC5)", "MAOA": "Amine oxidase [flavin-containing] A (MAOA, Homo sapiens, UniProt P21397)", "FUT1": "FUT1 (Homo sapiens, UniProt P19526)", "note": "Values joined by “and” are separate records of one study, mostly repeats; a detail may differ. ± marks the error that the study gave."}
{"SMILES": "O=C(c1ccc(=O)n(CCF)c1)C1CCN(C2Cc3ccccc3CC2O)CC1 (single isomer, unassigned; (-))", "target": "Tmem97", "assay": "ligand displacement, radioligand", "Ki": "5.84 µM"}
{"SMILES": "CCC1(CC)C(=O)N(c2cccc(CN3CCN(Cc4cccc5cccnc45)CC3)c2)C1=O", "target": "Dipeptidyl peptidase 9 (DPP9, Homo sapiens, UniProt Q86TI2)", "assay": "enzyme activity, inhibitor, fluorescence", "Ki": "0.0342 µM"}
{"SMILES": "OC[C@H]1[C@@H](O)[C@@H](O)CN1Cc1ccccc1", "target": "Golgi alpha-mannosidase IIb (Drosophila melanogaster, UniProt Q9VF33)", "assay": "Dixon plot", "conditions": "added: pNP-Man 0.5 to 4 mM", "Ki": "76 µM"}
{"SMILES": "CC[C@H](C)[C@H](NC(C)=O)C(=O)N[C@H](C(=O)NCC(=O)N[C@@H](CCCCN)C(=O)N[C@H](C=O)CC(=O)O)[C@@H](C)O", "target": "Caspase-2", "assay": "enzyme activity, inhibitor, fluorescence", "conditions": "pH 6.5", "Ki": "2.69 µM"}
{"SMILES": "CSCC[C@H](NC(=O)[C@@H](N)CS)C(=O)N[C@@H](CCC(N)=O)C(=O)N[C@H](C(=O)N[C@@H](CO)C(=O)N[C@@H](CCCCN)C(=O)N[C@@H](CC(C)C)C(=O)O)[C@@H](C)O", "target": "NHERF1 PDZ1 domain", "assay": "binding to PDZ1 domain, inhibitor, fluorescence polarization", "Ki": "19.3 ± 5.6 µM"}
{"SMILES": "Clc1cc(CN2CCCCC2)ccc1OCCCN1CCN(c2cccc3sccc23)CC1", "target": "Hrh3", "assay": "ligand displacement, radioligand", "conditions": "cell membranes", "Ki": "0.0894 µM"}
{"SMILES": "CC(=O)NCC(=O)N[C@@H](CCCCN)C(=O)N[C@H](C=O)CC(=O)O", "target": "Caspase-2 circularly permuted", "assay": "enzyme activity, inhibitor", "conditions": "pH 6.5, 37 °C, added: Z-VDVAD-AFC", "Ki": "> 100 µM"}
{"SMILES": "C[C@@H](O)[C@H](NC(=O)[C@@H]1CCCN1C(=O)[C@H](CCC(N)=O)NC(=O)[C@H](CCC(=O)O)NC(=O)[C@H](Cc1ccc(O)cc1)NC(=O)CNC(=O)[C@@H](N)CC(N)=O)C(=O)N[C@@H](Cc1ccc(O)cc1)C(=O)N[C@@H](CCCCN)C(=O)N[C@@H](Cc1ccccc1)C(=O)N[C@@H](Cc1ccccc1)C(=O)N[C@@H](CCC(=O)O)C(=O)O", "target": "Amyloid-beta A4 precursor protein-binding family A member 2, PTB-ARM region (APBA2, Homo sapiens, UniProt Q99767)", "assay": "inhibitor, fluorescence polarization", "conditions": "added: TAMRA-APPC-term probe 50 nM", "Ki": "≥ 500 µM"}
{"SMILES": "CC[C@H](C)[C@H](NC(=O)[C@@H](NC(=O)[C@H](CO)NC(=O)[C@@H](NC(=O)[C@H](CCC(N)=O)NC(=O)[C@H](Cc1c[nH]c2ccccc12)NC(=O)[C@@H](N)CS)[C@@H](C)O)[C@@H](C)CC)C(=O)O", "target": "NHERF1 PDZ1 domain", "assay": "binding to PDZ1 domain, inhibitor, fluorescence polarization", "Ki": "430 ± 109 µM"}
{"SMILES": "CC1(C)OCCc2cc(C(=O)N3CCC(c4nc(-c5ccccc5)n[nH]4)CC3)ccc21", "target": "FSP1 ancestral tetrapod", "assay": "competitive inhibitor", "conditions": "pH 7.2, added: NADH variable, coenzyme Q1 100 µM", "Ki": "0.283 µM"}
{"SMILES": "CC[C@H](C)[C@H](NC(C)=O)C(=O)N[C@H](C(=O)N[C@H](C(=O)N[C@H](CCN)C(=O)N[C@H](C=O)CC(=O)O)C(C)C)[C@@H](C)O", "target": "Caspase-2 circularly permuted", "assay": "enzyme activity, inhibitor", "conditions": "pH 6.5, 37 °C, added: Z-VDVAD-AFC", "Ki": "> 100 µM"}
{"SMILES": "Cc1ccc(NC(=O)CCN2CCCCCC2)cc1C", "target": "SIGMAR1", "assay": "ligand displacement, radioligand", "Ki": "0.0017 µM"}
{"SMILES": "CC(C)OC(=O)C(CS)N1C(=O)c2ccc(N(C)C)cc2C1=O (centres unmarked)", "target": "blaNDM-1", "assay": "enzyme activity, inhibitor", "conditions": "Km 0.55 µM, added: chromacef 25 µM", "Ki": "0.22 ± 0.01 µM"}
{"SMILES": "Cc1cc(N)nc(CC2CNCC2OCCNCC(F)(F)c2ccc(F)cc2)c1 (centres unmarked)", "target": "Nos2", "assay": "enzyme activity, inhibitor, hemoglobin capture", "Ki": "190 µM"}
{"SMILES": "N=C(N)Nc1nc2ccc(Cl)cc2[nH]1", "target": "Pteridine reductase (PTR1, Trypanosoma brucei brucei, UniProt O76290)", "assay": "inhibitor", "conditions": "pH 3.7", "Ki": "21.1 µM"}
{"SMILES": "CC[C@H](C)[C@H](NC(C)=O)C(=O)N[C@H](C(=O)N[C@H](C(=O)N[C@@H](CCCN)C(=O)N[C@H](C=O)CC(=O)O)C(C)C)[C@@H](C)O", "target": "Caspase-2", "assay": "enzyme activity, inhibitor, fluorescence", "conditions": "pH 6.5", "Ki": "0.724 µM"}
{"SMILES": "N=C(N)Nc1nc2cc(C(F)(F)F)ccc2[nH]1", "target": "TYMS", "assay": "inhibitor", "Ki": "> 500 µM"}
{"SMILES": "Nc1nc2c(ncn2[C@@H]2O[C@H](COP(=O)(O)OP(=O)(O)O[C@H]3O[C@@H](CNC(=O)c4ccc(-c5ccccc5)cc4)[C@@H](O)[C@@H](O)[C@@H]3F)[C@@H](O)[C@H]2O)c(=O)[nH]1", "target": "FUT8", "assay": "enzyme activity, inhibitor", "Ki": "273 µM"}
{"SMILES": "CC(Oc1cc(-c2ccccc2)nc2ccncc12)C(=O)N(C)c1ccccc1 (centres unmarked)", "target": "Translocator protein (TSPO, Homo sapiens, UniProt P30536)", "assay": "cell-free assay", "Ki": "0.025 µM"}
{"SMILES": "CC(=O)N[C@H](C(=O)N[C@H](C(=O)N[C@@H](CN)C(=O)N[C@H](C=O)CC(=O)O)C(C)C)[C@@H](C)O", "target": "Caspase-2", "assay": "enzyme activity, inhibitor, fluorescence", "conditions": "pH 6.5", "Ki": "> 100 µM"}
{"SMILES": "Fc1cc(OCCCN2CCN(c3cccc4sccc34)CC2)ccc1CN1CCOCC1", "target": "Histamine H1 receptor (HRH1, Cavia porcellus, UniProt P31389)", "Ki": "0.668 ± 0.0325 µM"}
{"SMILES": "COc1ccc(CCCN[C@H]2CCC[C@@H]2CN[C@@H]2CCC[C@H]2CNCCCCN[C@H]2CCC[C@@H]2CN)cc1", "target": "MAOA", "assay": "enzyme activity, inhibitor", "Ki": "500 µM"}
{"SMILES": "Nc1nc2c(ncn2[C@@H]2O[C@H](COP(=O)(O)OP(=O)(O)O[C@H]3O[C@@H](CNC(=O)Cc4ccccc4)[C@@H](O)[C@@H](O)[C@@H]3F)[C@@H](O)[C@H]2O)c(=O)[nH]1", "target": "FUT1", "assay": "enzyme activity, inhibitor", "Ki": "4.1 µM"}
{"SMILES": "CC(=O)N[C@@H](C)C(=O)N[C@@H](CCCCN)C(=O)N[C@H](C=O)CC(=O)O", "target": "Caspase-2", "assay": "enzyme activity, inhibitor, fluorescence", "conditions": "pH 6.5", "Ki": "> 100 µM"}
{"SMILES": "CC1(C)NC(N)=Nc2nc3ccccc3n21", "target": "TYMS", "assay": "inhibitor", "Ki": "> 500 µM"}
{"SMILES": "O=C(O)C1CC(OS(=O)(=O)c2ccc(-c3ccc(F)cc3)cc2)CN1 (centres unmarked)", "target": "Neutral amino acid transporter B(0) (Slc1a5, Rattus norvegicus, UniProt D3ZJ25)", "assay": "leak anion current, inhibitor, whole-cell patch clamp", "test system": "HEK293", "conditions": "0 mV, no external alanine, 140 mM NaCl external, SCN- internal", "Ki": "8.07 µM and 8.1 µM"}
{"SMILES": "Cc1cc(O)c2c(c1)C(=O)c1cc(O)c(O)c(O)c1C2=O", "target": "MAOA", "assay": "enzyme activity, inhibitor", "Ki": "3.97 µM"}
{"SMILES": "CCCCCCCCCC[C@@H]1O[C@@H]1CCCCC(C)C", "target": "pheromone-binding protein 2 (Lymantria dispar, UniProt O16106)", "assay": "binding, competitive fluorescence binding", "conditions": "pH 7.3, pheromone-binding protein 2, added: 1-NPN probe", "Ki": "2.48 ± 0.01 µM"}
{"SMILES": "COc1cc(CN2CCCC2)ccc1OCCN1CCN(c2cccc3sccc23)CC1", "target": "Hrh3", "assay": "ligand displacement, radioligand", "conditions": "cell membranes", "Ki": "0.164 µM"}
{"SMILES": "Cc1nc(N=Nc2ccc(S(=O)(=O)O)cc2S(=O)(=O)O)c(COP(=O)(O)O)c(C=O)c1O", "target": "Nucleoside triphosphate diphosphohydrolase 3 (Rattus norvegicus, UniProt A6I415)", "assay": "enzyme activity, inhibitor", "conditions": "cell membranes", "Ki": "3 µM"}
{"SMILES": "Nc1nc2c(ncn2[C@@H]2O[C@H](COP(=O)(O)OP(=O)(O)O[C@H]3O[C@@H](CNC(=O)CCc4ccccc4)[C@@H](O)[C@@H](O)[C@@H]3F)[C@@H](O)[C@H]2O)c(=O)[nH]1", "target": "FUT1", "assay": "enzyme activity, inhibitor", "Ki": "2.2 µM"}
{"SMILES": "O=C(O)COc1cccc(NC(=O)c2cc(-c3cccc(F)c3)ccc2F)c1", "target": "Prostaglandin E2 receptor EP1 subtype (PTGER1, Homo sapiens, UniProt P34995)", "assay": "ligand displacement, radioligand", "conditions": "cell membranes", "Ki": "> 10 µM"}
{"SMILES": "CC(=O)N[C@H](C(=O)N[C@H](C(=O)N[C@@H](CCN)C(=O)N[C@H](C=O)CC(=O)O)C(C)C)[C@@H](C)O", "target": "Caspase-2", "assay": "enzyme activity, inhibitor, fluorescence", "conditions": "pH 6.5", "Ki": "61.7 µM"}
{"SMILES": "CNC(=O)C1CCN(c2cc(C)c(F)cc2NC(=O)c2ccc(-c3cc(O)ccc3C)c(C)c2)CC1", "target": "Tyrosine-protein kinase Blk (BLK, Homo sapiens, UniProt P51451)", "assay": "cell-free assay, TR-FRET", "Ki": "0.0088 µM"}
{"SMILES": "CNC(=O)C(CS)N1C(=O)c2ccc(N(C)C)cc2C1=O (centres unmarked)", "target": "blaNDM-1", "assay": "enzyme activity, inhibitor", "conditions": "Km 0.55 µM, added: chromacef 25 µM", "Ki": "0.18 ± 0.01 µM"}
{"SMILES": "CC(=O)N[C@@H](CC(=O)O)C(=O)N[C@H](C(=O)N1CCC[C@H]1C(=O)N[C@H](C=O)CC(=O)O)C(C)C", "target": "Caspase-2 circularly permuted", "assay": "enzyme activity, inhibitor", "conditions": "pH 6.5, 37 °C, added: Z-VDVAD-AFC", "Ki": "0.468 µM"}
{"SMILES": "COc1cc2c(cc1OC)CN(CCCCNC(=O)c1cc(N=[N+]=[N-])ccc1OCCCCNC(=S)Nc1ccc(-c3c4ccc(=O)cc-4oc4cc(O)ccc34)c(C(=O)O)c1)CC2", "target": "SIGMAR1", "assay": "ligand displacement, radioligand", "conditions": "cell membranes", "Ki": "> 4 µM"}
{"SMILES": "Nc1nc2c(ncn2[C@@H]2O[C@H](COP(=O)(O)OP(=O)(O)O[C@H]3O[C@@H](CNC(=O)CCCc4ccccc4)[C@@H](O)[C@@H](O)[C@@H]3F)[C@@H](O)[C@H]2O)c(=O)[nH]1", "target": "FUT8", "assay": "enzyme activity, inhibitor", "Ki": "57.1 µM"}
{"SMILES": "C/C(=N\\OCCN1CCCC1)c1ccc(C(F)(F)F)cc1", "target": "Tmem97", "assay": "ligand displacement, radioligand", "Ki": "0.597 µM"}
{"SMILES": "CC(Oc1cc(-c2ccccc2)nc2cccnc12)C(=O)N(C)c1ccccc1 (centres unmarked)", "target": "Translocator protein (TSPO, Homo sapiens, UniProt P30536, T147A)", "assay": "cell-free assay", "Ki": "0.0011 µM"}
{"SMILES": "Cc1cc(N)nc(C[C@@H]2CNC[C@@H]2OCCC/C=C/c2cccc(F)c2)c1", "target": "Nos2", "assay": "enzyme activity, inhibitor", "conditions": "pH 7.4", "Ki": "35.1 µM"}
